Assay results gathered from unrelated publications.
Numbered parts are unrelated; each lists some results of a single study. Changes are numbered by the printed parent chain.

Set 1
Target: CCND1, cyclin fold, Cln2 fusion (human)
Method: yeast growth competition, sequencing
Medium: yeast
Setting: weak parent motif
Reference: not given
Direction: higher = stronger binding
Starting sequence: SLBP docking peptide (human); ARYKRKLLINDFG
`L7S` — result for “normalised enrichment score”: -0.167.
Under “normalised enrichment score”, `N10W` is recorded as 0.745.
`F12G` — result for “normalised enrichment score”: -0.101.
`A1V` — result for “normalised enrichment score”: 0.0231.
`K4Q` — result for “normalised enrichment score”: 0.283.
`L8W`: “normalised enrichment score” 0.584.
`R5P`: “normalised enrichment score” 0.362.

Set 2
Target: Ras GTPase-activating protein-binding protein 1, C-terminal RGG region (G3BP1, Homo sapiens, UniProt Q13283)
UniProt Q13283, sequence (whole entry, looked up): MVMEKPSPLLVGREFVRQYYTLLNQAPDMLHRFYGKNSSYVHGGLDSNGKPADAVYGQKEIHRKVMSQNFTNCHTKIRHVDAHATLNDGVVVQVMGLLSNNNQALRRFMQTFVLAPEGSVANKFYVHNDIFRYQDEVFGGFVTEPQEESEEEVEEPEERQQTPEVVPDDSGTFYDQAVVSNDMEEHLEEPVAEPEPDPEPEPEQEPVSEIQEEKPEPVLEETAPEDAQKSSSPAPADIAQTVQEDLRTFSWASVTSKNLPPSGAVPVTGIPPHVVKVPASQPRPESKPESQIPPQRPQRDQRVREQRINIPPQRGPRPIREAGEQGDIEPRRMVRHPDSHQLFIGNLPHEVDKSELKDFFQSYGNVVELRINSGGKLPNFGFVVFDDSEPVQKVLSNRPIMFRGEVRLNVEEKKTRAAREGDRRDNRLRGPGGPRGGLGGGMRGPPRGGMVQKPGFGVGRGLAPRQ
Method: RNA Bind-n-Seq
Molecule type: RNA
Medium: in vitro
Tested at: 1 µM
Setting: whole 134-nt RNA, ends assumed
Together with: 150 mM KCl
Reference: input library
Direction: higher = stronger binding
All sequences stand within: GGGAGUUCUACAGUCCGACGAUC … UGGAAUUCUCGGGUGUCAAGG
With `UGGCCCUGGAGGCAUGCGGGGAGGAAGAGGUGGCCUCAUGGAUCGUGGUGGUCCCGGUGGAAUGUUCAGAGGUGGCCGUGGUGGAGACAG` the log2 enrichment was 2.06.
The log2 enrichment of `ACCAUGCAGGUGGGCAUCUUUGGGAAGUGGGGCAAGGGGGGGAUAGGGGGGGGGGUAACACUUUGGGAACAGGUGGUCCCAGGUCGUUUC` is reported as 2.27.
The log2 enrichment of `UACUCUUUGAUUUAUCAAAUGUGUUCAGUUGGAGAAUCGUCCUCAGGAAAGGCUUCAAGGAGCCUUGCACAGCAUAUUCCUGGCCCUGGU` is reported as -1.54.
`UAACUUUAGAGGAGGAUCUGAUGGAUAUGGCAGUGGACGUGGAUUUGGGGAUGGCUAUAAUGGGUAUGGAGGAGUACCUGGAGGUGGCAA` gave a log2 enrichment of -0.151.
With `GUCCUGUGCUACACAUCGUAUGUACCGAAUCGGGGUUUGGGGAAAAAGGGGUUUGGGGAAAGUAUUAUGUUACGCCGUUCGGAUCUGCAC` the log2 enrichment was 3.06.
For `UCAAGUCCUGUGCUACACAUCGUAUGUACCGAAUCGGAAAGGAAAAAGGUUUGGAAAGUAUUAUGUUACGCCGUUCGGAUCUGCACUUCC`, the log2 enrichment was -1.47.
`ACCAUGCAGGUGGGCAUCUUUGAAAAGUGGGGCAAGGGGGGGAUAGGGAGGGGGGUAACACUUUGGGAACAGGUGGUCCCAGGUCGUUUC` has a log2 enrichment of -1.16.
`CCUCAAGUCCUGUGCUACACAUCGUAUGUACCGAAUCGGAGGUUUGGAAAGGAAAGUAUUAUGUUACGCCGUUCGGAUCUGCACUUCCAG` gave a log2 enrichment of -0.877.

Set 3
Target: Histone acetyltransferase KAT6A, winged helix 1, GST fusion (KAT6A, Homo sapiens, UniProt Q92794, residues 1-85)
Method: protein binding microarray
Molecule type: double-stranded DNA, one strand shown
Medium: in vitro
Tested at: not given
Setting: 8-mer, flanks averaged, mean of 2 arrays, mostly near background
Reference: not given
Direction: higher = stronger binding
Construct (chain): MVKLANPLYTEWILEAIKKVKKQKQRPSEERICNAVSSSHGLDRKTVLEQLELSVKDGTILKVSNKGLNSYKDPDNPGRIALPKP
`AAATTGCT` gave an E-score of -0.14.
The E-score of `CCTTAGGC` is reported as -0.0412.
For `ATTGGTGA`, the E-score was -0.214.
The E-score of `AGGGGACC` is reported as -0.0231.
For `TAGAGAAA`, the E-score was -0.112.
With `AGTTCTAT` the E-score was -0.1.
With `GCGAGTCC` the E-score was 0.238.

Other studies, line by line
With `PhoQ, residues 284 288 289 292 302 303 TASMAF` the fold induction was 2.92 (PhoP, residues 12 14 15 18 19 SEGLL (Escherichia coli, UniProt P23836); Sort-seq, item: YFP reporter; E. coli; PhoQ-PhoP variant library, together with: 10 µM Mg2+; reference: high Mg2+ state, higher = stronger signaling).

A few entries again (set 3):
The E-score of `AGGGGACC` is reported as -0.0231.
For `ATTGGTGA`, the E-score was -0.214.
